Measured values of several laboratories.
Every numbered part comes from another study and shows a few of its results, in no order. Substitutions count along the parent as printed.

Sample 1
Target: RING finger protein unkempt homolog, zinc fingers 1-6, GST-SBP tag (UNK, Homo sapiens, UniProt Q9C0B0, residues 30-357)
Sequence of UniProt Q9C0B0 (30-357, looked up): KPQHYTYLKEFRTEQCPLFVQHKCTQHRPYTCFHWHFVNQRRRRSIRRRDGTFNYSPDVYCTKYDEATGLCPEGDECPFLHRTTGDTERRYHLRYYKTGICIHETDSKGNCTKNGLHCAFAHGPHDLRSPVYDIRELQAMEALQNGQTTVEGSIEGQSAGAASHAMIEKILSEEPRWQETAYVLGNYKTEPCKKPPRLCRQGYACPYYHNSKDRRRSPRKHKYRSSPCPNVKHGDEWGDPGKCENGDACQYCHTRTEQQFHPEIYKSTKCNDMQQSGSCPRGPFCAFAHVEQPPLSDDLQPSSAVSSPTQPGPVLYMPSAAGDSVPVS
Method: RNA Bind-n-Seq
Molecule type: RNA
Matrix: in vitro
Tested at: not given
Setting: RNA with constant flanks, ends assumed
Relative to: input RNA pool
Reading: higher = stronger binding
Constant ends, left off below: GGGAGUUCUACAGUCCGACGAUC … CAACAGAGGAUUGAGCAUCA
Strand | bound/input enrichment
CAGAUAGCAUCAUUAAGAUCAGUUUUAAGGGGUAUAGGGAGGGUGAGGGAAGUGGGGGGUGUCCGGUAAGGGUUGGGGGUAGAGGUUUUGGGAUGUCUUAGUUAGAAACCAGAUUAAUAG | 12.8 ratio
UUUUUUUUAAUUUUUUUUAAAAUUUCAUAUCUUUUCAUUCCACUGUGUAAAGUGCCCGGAAAUUUCCAAUUUGAAAUUUUGCUUUUUCUGGCAUUGGCAAAAAACCAGUAGAAGUGAAUU | 0.405 ratio
AUCAUAAAAUACAUUGUCAACCGAGGAGAACACAAGAAUGGAGUUCUGGAAGAGGCAAUAACCGCAACAAUUCUUAAAGAGGUUUUGGAAGGCUUAGACUAUCUACACAGAAACGGUCAG | 0.313 ratio
GGUGGUGCUACACGAAUCCCUGCGGUAAAAGAGAAGAUCAGCAAAUUUUUCGGUAAAGAACUCCGUACAACAUUAAAUGCUGAUGAAGCUGUCACUCGAGGCUGUGCAUUGCAGUGUGCC | 0.705 ratio
UCUCUAAGAGGAAGACCUUCAAAUUUGGUUCAUACGACAACAGUUAUUAAGAGAGAUUUCCCGUAAUCUUCAGAUGUGAGGUUUUUUUUCUGCCAACAAAAGUCACAUUCAAAUUGUAUU | 0.238 ratio
GUGGCUCGCUAUGCUGCCGAGAACAACAGGGUCUUCACUUUGAACCUGUCUGCACCGUUCAUCCGCCAGUUCUUCAAGGAAGCCUUGAUGGACGUCAUGCCUUAUGUUGAUAUCCUCUUU | 0.123 ratio
GUAAGAGGUGAGAAGGAAUCUUUAGAUCUUCGAAAGGAAAAAGAGACACUUGAGAAAAAACUCCGAGAUGCAAAUAAGGAACUUGAGAAAAACACUAACAAAAUUAAGCAGCUUUCUCAG | 0.206 ratio
GAAGAUGGUGGUUGUACAUUAUUCAUCUAGAAAAUAUAAAAAUUCAUUUUGUUUUGAAGCCCGUUAUUAAACUGGAAUAGCAGUUAUAUCCCUGAGAAUGGGGCCCUUCUCUUGACAUUC | 6.56 ratio

Sample 2
Target: CRIPT, C-terminal peptide
Method: DHFR complementation, deep sequencing
Matrix: yeast
Setting: single substitutions, model-inferred values
Relative to: wild type
Reading: higher = weaker binding
Starting sequence: ERBIN, PDZ domain 1 (human); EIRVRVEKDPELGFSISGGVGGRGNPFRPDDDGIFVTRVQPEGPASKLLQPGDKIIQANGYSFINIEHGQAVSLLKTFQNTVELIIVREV; partner TKNYKQTSV
Substitution | binding free energy change [kcal/mol]
R3A | -0.142
V87Q | -0.0738
K76W | 0.42
T81S | 0.0297
F14A | 0.135
F78M | 0.0625
V39F | -0.272
Y61L | 0.0319

Sample 3
Target: Centromere-binding protein 1, full length, His-tagged (CBF1, Saccharomyces cerevisiae, UniProt P17106, residues 1-351)
Sequence of UniProt P17106 (whole entry, looked up): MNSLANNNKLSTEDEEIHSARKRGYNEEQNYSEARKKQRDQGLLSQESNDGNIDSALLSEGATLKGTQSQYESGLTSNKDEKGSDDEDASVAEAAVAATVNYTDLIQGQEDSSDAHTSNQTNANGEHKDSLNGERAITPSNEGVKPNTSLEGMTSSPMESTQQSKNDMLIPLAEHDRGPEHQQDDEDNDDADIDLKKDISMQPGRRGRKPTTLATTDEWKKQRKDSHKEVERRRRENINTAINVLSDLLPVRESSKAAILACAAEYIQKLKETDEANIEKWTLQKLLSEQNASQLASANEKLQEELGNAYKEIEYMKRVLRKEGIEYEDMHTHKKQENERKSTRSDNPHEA
Method: competition protein-binding microarray
Molecule type: double-stranded DNA, one strand shown
Matrix: in vitro
Tested at: 2 µM
Setting: whole 60-bp probe, lowest competitor level
With: Pho4 competitor, 0.05 µM
Reading: higher = stronger binding
Constant ends, left off below: … GTCTTGATTCGCTTGACGCTGCTG
Strand | fluorescence intensity [a.u.]
CTTCAACAACAAGTGTCTGTGACGGCTTCAAGGGTC | 84.2
ATATACATACACACATACATGCAAGCACATACATCC | 120
TGCGCAACAACTTGTCACTCGACTTTATGTCTAGAA | 76.3
CTAACGAAGGTTTGTTCCGTGGGTGACAAGCCAAGT | 62
TAGCTAAAAACGAGTCACGTGATGGATATTCGAAAG | 27300
TAGTGATTGTTGGATCATATGACTGTGGGAAAATAA | 331
AGAGGGCATCTCAGCCATGTGTTCTCCAGCTCATTA | 92
ATTTGAGAATATACTGTCGTGACGAAGTCAATGACA | 116

Other studies, line by line
Starting sequence: PafA, mature enzyme, eGFP fusion (Elizabethkingia meningoseptica, UniProt Q9KJX5); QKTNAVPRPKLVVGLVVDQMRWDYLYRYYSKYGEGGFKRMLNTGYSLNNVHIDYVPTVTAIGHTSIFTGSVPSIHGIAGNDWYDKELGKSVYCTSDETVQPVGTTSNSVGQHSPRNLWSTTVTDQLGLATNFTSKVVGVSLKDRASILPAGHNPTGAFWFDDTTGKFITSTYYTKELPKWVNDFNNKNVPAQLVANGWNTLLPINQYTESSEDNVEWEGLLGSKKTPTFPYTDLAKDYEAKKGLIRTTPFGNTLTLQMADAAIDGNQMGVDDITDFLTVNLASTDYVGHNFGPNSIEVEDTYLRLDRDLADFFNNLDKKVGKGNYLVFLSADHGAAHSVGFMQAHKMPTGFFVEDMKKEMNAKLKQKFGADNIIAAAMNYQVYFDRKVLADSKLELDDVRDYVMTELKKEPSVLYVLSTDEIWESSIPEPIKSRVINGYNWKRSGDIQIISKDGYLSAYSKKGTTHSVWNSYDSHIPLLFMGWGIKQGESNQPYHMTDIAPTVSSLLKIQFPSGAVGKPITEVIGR
Substitution | target | test | system | setting | how to read | measurement | value
R443V | inorganic phosphate, free oxyanion | microfluidic competitive inhibition | in vitro, cell-free expressed | not given, derived from inhibition constants, unchanged parent 615000 nM | lower = stronger binding | phosphate dissociation constant | 515 µM

A few entries again (sample 3):
Strand | fluorescence intensity [a.u.]
TAGTGATTGTTGGATCATATGACTGTGGGAAAATAA | 331
CTTCAACAACAAGTGTCTGTGACGGCTTCAAGGGTC | 84.2
ATTTGAGAATATACTGTCGTGACGAAGTCAATGACA | 116
